Measurements of several laboratories.
Lines come from different studies, so protocols differ. “And” joins repeats or separate records; there may be more than shown. ± marks the error that the study gave.
lasR: Transcriptional activator protein LasR (lasR, Pseudomonas aeruginosa, UniProt P25084)
MAPK8: Mitogen-activated protein kinase 8 (MAPK8, Homo sapiens, UniProt P45983)
HDAC8: Histone deacetylase 8 (HDAC8, Homo sapiens, UniProt Q9BY41)
Oprm1: Mu-type opioid receptor (Oprm1, Mus musculus, UniProt P42866)
FURIN: Furin (FURIN, Homo sapiens, UniProt P09958)

Protein sequences, listed by entry. Tags and fused reporters are not part of them. Lines headed by an entry give the natural chain unless they say otherwise; changes in a name come on top. Chains listed by the source or under a name are the forms on record and can include a tag or linker. Residues count along the entry.
UniProt P25084, 1-173 limits assumed: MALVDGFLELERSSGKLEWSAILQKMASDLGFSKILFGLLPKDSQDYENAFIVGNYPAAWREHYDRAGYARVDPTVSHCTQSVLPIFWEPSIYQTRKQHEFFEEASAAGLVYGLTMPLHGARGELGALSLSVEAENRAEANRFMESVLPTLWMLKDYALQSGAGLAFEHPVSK
UniProt P25084, whole entry: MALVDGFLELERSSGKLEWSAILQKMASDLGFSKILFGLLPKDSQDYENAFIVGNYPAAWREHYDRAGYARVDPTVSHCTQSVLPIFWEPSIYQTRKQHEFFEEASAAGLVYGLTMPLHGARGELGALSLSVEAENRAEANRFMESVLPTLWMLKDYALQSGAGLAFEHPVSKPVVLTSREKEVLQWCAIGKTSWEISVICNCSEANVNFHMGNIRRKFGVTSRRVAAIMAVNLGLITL
UniProt P45983, 1-384 isoform 3: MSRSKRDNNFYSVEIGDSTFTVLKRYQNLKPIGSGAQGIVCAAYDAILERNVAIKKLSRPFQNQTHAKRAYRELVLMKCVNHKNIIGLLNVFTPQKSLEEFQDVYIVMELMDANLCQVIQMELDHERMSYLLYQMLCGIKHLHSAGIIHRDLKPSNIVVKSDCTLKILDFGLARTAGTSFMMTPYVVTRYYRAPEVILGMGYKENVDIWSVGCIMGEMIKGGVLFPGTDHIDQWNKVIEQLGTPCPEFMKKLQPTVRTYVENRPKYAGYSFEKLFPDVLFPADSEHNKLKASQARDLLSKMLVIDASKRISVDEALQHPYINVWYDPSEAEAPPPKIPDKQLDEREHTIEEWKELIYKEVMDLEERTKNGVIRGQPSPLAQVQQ
UniProt Q9VNB5, whole entry: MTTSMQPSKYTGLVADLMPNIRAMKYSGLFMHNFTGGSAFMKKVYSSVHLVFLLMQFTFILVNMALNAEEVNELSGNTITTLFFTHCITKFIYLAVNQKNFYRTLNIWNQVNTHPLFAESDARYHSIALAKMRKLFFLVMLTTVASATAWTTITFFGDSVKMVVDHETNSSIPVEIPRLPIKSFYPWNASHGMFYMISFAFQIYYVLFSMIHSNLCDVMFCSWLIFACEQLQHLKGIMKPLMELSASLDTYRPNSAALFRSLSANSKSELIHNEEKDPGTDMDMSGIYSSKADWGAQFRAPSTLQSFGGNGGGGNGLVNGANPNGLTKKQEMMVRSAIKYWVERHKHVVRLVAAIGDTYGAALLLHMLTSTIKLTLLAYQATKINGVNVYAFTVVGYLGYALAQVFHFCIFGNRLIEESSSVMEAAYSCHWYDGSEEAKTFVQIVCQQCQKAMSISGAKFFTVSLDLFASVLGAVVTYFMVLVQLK
UniProt P14867, whole entry, looked up: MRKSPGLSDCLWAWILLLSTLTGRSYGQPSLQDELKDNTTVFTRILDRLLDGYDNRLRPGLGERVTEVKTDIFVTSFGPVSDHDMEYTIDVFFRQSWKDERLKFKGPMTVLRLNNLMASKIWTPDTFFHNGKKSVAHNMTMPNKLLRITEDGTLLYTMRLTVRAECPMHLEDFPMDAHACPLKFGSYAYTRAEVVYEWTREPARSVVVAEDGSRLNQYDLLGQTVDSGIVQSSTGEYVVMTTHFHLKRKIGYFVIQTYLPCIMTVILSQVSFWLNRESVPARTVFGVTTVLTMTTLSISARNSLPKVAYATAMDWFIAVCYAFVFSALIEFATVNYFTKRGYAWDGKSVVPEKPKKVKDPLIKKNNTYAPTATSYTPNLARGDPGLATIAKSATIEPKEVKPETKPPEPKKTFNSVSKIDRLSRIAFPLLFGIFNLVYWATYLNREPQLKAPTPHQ
UniProt P11229, whole entry: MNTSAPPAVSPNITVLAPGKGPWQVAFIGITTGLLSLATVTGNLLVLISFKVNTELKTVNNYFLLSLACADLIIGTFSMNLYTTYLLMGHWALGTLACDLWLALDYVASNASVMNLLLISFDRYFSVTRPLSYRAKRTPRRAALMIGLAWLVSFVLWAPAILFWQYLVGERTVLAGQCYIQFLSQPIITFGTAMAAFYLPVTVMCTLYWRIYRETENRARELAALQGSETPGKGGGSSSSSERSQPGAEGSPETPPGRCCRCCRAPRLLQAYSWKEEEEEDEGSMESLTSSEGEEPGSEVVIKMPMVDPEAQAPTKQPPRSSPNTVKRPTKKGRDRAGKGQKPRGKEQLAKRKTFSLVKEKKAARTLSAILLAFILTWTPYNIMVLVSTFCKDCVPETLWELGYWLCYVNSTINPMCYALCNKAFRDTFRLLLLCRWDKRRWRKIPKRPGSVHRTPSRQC
UniProt Q9M9V8, whole entry: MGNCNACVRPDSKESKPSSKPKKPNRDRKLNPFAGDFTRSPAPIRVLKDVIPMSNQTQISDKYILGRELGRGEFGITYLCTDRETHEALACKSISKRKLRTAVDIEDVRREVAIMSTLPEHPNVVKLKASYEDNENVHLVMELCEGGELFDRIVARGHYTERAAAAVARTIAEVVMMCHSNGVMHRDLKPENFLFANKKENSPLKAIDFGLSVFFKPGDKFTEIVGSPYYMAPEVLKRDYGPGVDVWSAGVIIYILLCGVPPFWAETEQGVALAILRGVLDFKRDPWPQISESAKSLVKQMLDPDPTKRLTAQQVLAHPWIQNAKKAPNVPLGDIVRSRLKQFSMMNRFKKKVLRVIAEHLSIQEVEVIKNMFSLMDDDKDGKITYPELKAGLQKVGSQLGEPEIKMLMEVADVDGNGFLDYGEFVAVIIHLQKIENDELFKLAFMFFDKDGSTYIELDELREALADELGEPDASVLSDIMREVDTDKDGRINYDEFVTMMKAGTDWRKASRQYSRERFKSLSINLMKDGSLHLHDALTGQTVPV
UniProt P31645, whole entry: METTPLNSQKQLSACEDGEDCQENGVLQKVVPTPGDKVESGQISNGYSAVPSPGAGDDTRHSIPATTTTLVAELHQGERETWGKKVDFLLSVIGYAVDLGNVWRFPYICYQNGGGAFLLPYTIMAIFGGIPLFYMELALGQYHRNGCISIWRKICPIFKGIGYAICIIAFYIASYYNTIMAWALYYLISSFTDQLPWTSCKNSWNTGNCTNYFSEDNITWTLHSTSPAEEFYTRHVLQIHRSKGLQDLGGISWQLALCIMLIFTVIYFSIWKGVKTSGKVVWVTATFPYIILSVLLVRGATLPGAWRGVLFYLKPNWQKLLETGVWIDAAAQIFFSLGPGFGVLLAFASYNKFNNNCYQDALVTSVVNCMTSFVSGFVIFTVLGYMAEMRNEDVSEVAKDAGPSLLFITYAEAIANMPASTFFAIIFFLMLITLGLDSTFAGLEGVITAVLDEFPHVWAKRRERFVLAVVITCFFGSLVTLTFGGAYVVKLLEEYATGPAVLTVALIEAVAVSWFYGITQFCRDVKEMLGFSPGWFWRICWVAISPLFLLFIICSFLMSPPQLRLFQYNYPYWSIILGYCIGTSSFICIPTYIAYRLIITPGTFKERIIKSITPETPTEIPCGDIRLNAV
UniProt Q9UBN7, whole entry: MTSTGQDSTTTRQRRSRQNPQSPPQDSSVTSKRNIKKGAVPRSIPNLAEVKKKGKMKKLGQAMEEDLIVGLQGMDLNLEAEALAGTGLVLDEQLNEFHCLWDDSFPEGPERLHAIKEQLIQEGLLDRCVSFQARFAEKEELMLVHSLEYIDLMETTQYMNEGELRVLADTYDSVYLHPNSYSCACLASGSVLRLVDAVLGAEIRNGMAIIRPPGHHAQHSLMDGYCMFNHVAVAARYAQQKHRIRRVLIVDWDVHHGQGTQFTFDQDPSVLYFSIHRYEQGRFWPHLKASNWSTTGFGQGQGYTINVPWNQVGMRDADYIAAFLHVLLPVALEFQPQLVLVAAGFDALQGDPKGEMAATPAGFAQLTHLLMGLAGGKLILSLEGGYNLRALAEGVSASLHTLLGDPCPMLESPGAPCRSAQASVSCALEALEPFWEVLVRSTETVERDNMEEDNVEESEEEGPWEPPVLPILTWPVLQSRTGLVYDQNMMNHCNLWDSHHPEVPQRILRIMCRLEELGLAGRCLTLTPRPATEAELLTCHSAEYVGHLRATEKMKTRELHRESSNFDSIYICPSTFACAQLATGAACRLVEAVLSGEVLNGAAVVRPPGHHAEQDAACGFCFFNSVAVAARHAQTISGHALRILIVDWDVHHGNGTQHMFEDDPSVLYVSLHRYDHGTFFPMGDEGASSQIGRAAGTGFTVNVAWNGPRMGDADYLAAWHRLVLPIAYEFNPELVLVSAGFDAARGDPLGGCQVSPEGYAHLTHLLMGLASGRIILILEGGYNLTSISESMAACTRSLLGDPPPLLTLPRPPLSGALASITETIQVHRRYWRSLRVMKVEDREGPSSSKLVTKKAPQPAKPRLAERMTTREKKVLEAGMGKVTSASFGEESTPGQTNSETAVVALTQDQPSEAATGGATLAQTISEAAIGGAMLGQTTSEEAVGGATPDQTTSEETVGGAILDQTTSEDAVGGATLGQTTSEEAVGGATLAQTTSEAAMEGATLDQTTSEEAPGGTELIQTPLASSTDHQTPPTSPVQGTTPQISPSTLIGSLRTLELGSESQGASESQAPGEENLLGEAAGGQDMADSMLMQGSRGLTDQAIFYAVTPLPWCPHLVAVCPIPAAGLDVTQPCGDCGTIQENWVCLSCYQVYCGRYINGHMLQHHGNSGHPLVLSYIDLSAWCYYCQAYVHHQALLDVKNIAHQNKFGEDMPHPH
UniProt O39927, 2428-3018 limits assumed: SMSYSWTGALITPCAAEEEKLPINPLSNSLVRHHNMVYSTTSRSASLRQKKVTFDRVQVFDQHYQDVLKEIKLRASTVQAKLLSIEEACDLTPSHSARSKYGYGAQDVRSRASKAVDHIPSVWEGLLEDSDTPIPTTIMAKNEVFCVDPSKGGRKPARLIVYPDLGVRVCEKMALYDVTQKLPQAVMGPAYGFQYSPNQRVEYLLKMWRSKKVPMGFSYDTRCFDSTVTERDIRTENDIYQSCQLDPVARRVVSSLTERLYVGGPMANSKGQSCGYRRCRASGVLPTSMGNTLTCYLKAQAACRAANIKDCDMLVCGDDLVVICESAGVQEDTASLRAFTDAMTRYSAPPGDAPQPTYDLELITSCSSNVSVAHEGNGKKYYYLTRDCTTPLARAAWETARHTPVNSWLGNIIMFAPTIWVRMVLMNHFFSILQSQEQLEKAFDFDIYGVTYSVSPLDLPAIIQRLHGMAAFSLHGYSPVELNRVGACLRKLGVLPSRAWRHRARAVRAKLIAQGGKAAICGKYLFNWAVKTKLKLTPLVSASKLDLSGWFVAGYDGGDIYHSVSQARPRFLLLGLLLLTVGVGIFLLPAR
UniProt Q07440, whole entry P104K/C113S, looked up: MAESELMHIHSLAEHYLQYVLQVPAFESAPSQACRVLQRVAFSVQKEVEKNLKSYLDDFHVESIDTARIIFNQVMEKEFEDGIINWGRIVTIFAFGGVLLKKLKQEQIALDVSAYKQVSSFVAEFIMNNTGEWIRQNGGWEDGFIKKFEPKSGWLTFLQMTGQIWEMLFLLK
UniProt P51452, 28-179 limits assumed: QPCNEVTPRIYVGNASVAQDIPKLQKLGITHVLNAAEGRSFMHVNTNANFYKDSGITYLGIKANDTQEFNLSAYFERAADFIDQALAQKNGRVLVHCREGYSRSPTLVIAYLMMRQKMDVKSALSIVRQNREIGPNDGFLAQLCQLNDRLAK
UniProt P03420, 26-109 partner limits assumed: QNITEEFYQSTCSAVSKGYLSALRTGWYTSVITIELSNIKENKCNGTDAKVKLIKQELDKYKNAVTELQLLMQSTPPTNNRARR
UniProt P03420, 137-513 with tags or gaps I379V/M447V/S155C/S190F/S290C/V207L limits assumed: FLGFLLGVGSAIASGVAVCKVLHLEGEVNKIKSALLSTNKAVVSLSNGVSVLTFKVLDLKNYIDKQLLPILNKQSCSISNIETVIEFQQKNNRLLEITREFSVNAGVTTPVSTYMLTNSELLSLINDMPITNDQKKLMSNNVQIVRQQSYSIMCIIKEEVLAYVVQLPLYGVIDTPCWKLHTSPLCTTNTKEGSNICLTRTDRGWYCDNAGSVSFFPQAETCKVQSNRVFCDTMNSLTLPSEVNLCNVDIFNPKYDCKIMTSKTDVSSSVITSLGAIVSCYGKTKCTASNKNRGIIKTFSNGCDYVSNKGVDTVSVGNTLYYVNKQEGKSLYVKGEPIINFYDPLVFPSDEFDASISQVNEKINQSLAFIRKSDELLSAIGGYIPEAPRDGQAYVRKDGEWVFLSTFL
UniProt O08914, whole entry: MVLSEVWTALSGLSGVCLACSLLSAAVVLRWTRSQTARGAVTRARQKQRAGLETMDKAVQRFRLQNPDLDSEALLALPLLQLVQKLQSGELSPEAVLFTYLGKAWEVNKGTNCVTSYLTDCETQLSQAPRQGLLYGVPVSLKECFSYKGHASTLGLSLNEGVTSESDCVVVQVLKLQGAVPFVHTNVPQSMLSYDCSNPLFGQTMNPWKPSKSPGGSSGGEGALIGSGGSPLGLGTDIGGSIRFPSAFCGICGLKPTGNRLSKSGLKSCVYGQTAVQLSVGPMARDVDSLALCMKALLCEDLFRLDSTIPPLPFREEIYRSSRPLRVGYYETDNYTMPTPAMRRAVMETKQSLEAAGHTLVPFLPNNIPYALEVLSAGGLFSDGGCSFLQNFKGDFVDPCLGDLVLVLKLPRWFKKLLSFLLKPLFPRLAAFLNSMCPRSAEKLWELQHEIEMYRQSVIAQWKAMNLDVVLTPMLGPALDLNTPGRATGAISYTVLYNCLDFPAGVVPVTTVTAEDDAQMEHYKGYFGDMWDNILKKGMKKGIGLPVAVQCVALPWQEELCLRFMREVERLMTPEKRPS

O=S(=O)(O)c1ccc2cc(S(=O)(=O)O)ccc2c1  ligand efficiency (Beta-lactamase OXA-58 (OXA-58, Acinetobacter baumannii, UniProt Q2TR58); enzyme activity, inhibitor): 0.3
O=C(NCc1cc(Br)cc(Br)c1OC(=O)c1ccccc1[N+](=O)[O-])c1ccccc1Cl  melting temperature (lasR; thermal stability, differential scanning fluorimetry): 62.6 ± 0.2 °C
CC(C)c1ccc(NC(=O)CSc2nnc(-c3cnn(C)c3)n2C2CC2)cc1  efficacy (Orco (Drosophila melanogaster, UniProt Q9VNB5); calcium mobilization, agonist; HEK293 expressing Drosophila Orco; relative to: VUAA1): 175%
COC(=O)[C@@H](CS)N1C(=O)c2ccc(N(C)C)cc2C1=O  maximum fluorescence increase (blaNDM-1 (Klebsiella pneumoniae, UniProt C7C422); probe; fully metalated enzyme, added: ZnSO4 up to 50 µM; relative to: probe alone): ~17 fold and 17 fold
Cc1nc2c[nH]c(/C=C/C=C/c3ccc(N(C)C)cc3)cn-2c1=O  signal enhancement (TAR DNA-binding protein 43, oligomeric (TARDBP, Homo sapiens, UniProt Q13148); oligomer binding; 15 µM; relative to: probe without protein): 17.2 ± 3.6 fold
O=C(OCC1CCCN(C(=O)CCc2ccccc2)C1)c1ccccc1-c1ccccc1 (stereo not shown)  Hill coefficient (Neuronal acetylcholine receptor; alpha4/beta2 (Homo sapiens, UniProt P17787+P43681)): -0.9
O=C1NC(=O)C2(Cc3ccccc32)N1 (racemic)  maximal inhibition (GABA-A receptor alpha-1/beta-3, with gamma-2 subunit (GABRA1/GABRB3, Homo sapiens, UniProt P14867+P28472); alpha1beta3gamma2 receptor): 66%
CC1(C)SCN(C(=O)[C@@H](O)[C@H](Cc2ccccc2)NC(=O)COc2ccccc2)[C@@H]1C(=O)N[C@H]1c2ccccc2C[C@H]1O  association constant (Ka) (Gag-Pol polyprotein, protease (gag-pol, Human immunodeficiency virus type 1 group M subtype B, UniProt P04585, L521I/L551I/Q495K); binding, isothermal titration calorimetry; pH 5.0, 25 °C): 8.5e+07 M⁻¹
O=C(N[C@H]1CCCC[C@@H]1O)C1CN(Cc2ccc(-n3cccn3)cc2)c2ccccc2O1 (stereo partly shown)  efficacy (CHRM1 (Homo sapiens, UniProt P11229); calcium mobilization, agonist; high-expression cell line; relative to: acetylcholine max): 22%
CC(C)C[C@H](NC(=O)[C@@H]1CCCN1)C(=O)N[C@@H](C)C(=O)N[C@@H](CCCNC(=N)N)C(=O)N[C@H](C(=O)N[C@@H](CC(C)C)C(=O)N[C@@H](CO)C(=O)N[C@H](C(=O)N[C@@H](C)C(=O)NCC(=O)N[C@@H](CC(C)C)C(=O)N1CCC[C@H]1C(=O)NCC(=O)N[C@@H](CCCCN)C(=O)N[C@@H](CCCCN)C(=O)O)C(C)C)[C@@H](C)O  Km (Calcium-dependent protein kinase 10 (CPK10, Arabidopsis thaliana, UniProt Q9M9V8); peptide phosphorylation, substrate, filter-based kinase; 12 min, room temperature, added: 50 µM ATP): 244 µM
COC(=O)[C@@]1(C)C=C(C(=O)Nc2ccc(C)c(C(=O)Nc3ccc(Nc4nccc(-c5cccnc5)n4)cc3)c2)C(=O)CC1  remaining activity (MAPK8; kinase activity, inhibitor; 0.5487 µM, unit not given, added: 10 mM GSH; relative to: DMSO): 0.0943
C[C@@H]1CN(C)CCN1c1nc(-c2ccc(F)cc2)cs1  binding equilibration half-time (SLC6A4 (Homo sapiens, UniProt P31645); 5-HT-induced current, whole-cell patch clamp; half-maximal inhibitory concentration): < 7 min
COC(=O)[C@@]1(C)C=C(C(=O)Nc2cc(C(=O)Nc3ccc(Nc4nccc(-c5cccnc5)n4)cc3)ccc2C)C(=O)CC1  remaining activity (MAPK8; kinase activity, inhibitor; 0.06097 µM, unit not given, added: 10 mM GSH; relative to: DMSO): 0.247
O=C(NCc1cc(Br)cc(Br)c1OC(=O)c1ccccc1[N+](=O)[O-])c1ccccc1[N+](=O)[O-]  maximum efficacy (lasR; reporter gene, agonist; Escherichia coli JLD271 lasI-lacZ reporter; relative to: OdDHL): 93%
CC(=O)NCCCC[C@H](NC(=O)CNC(=O)[C@H](CCCNC(=N)N)NC(C)=O)C(=O)N[C@@H](Cc1c[nH]c2ccccc12)C(N)=O  kcat (HDAC6 (Homo sapiens, UniProt Q9UBN7); deacetylation, substrate; 25 °C, added: 10 to 50 nM enzyme): 0.25 ± 0.04 s⁻¹
O=c1ccn([C@@H]2O[C@H](COP(=O)(O)OP(=O)(O)OP(=O)(O)O)[C@@H](O)[C@]2(F)Br)c(=O)[nH]1  IC50 fold change (Genome polyprotein, NS5B polymerase (Hepatitis C virus genotype 6a, UniProt O39927); polymerase activity, inhibitor; Hepatitis C virus, genotype 6a; relative to: genotype 1b): 0.92
O=C(Oc1c(Br)cc(Br)cc1CNC(=O)c1ccccc1[N+](=O)[O-])c1ccc(Cl)cc1  melting temperature (lasR; thermal stability, differential scanning fluorimetry): 66 °C
CC(=O)NCCCC[C@H](NC(=O)[C@H](CCCCNC(C)=O)NC(=O)[C@H](Cc1c[nH]cn1)NC(=O)[C@H](CCCNC(=N)N)NC(C)=O)C(N)=O  kcat/KM (HDAC8; deacetylation, substrate; 25 °C, added: 150 nM enzyme): 34 ± 4 M⁻¹ s⁻¹
C#CCN1CC[C@]23c4c5ccc(O)c4O[C@H]2[C@H](NC(=O)c2ccc(N=[N+]=[N-])c([125I])c2)CC[C@@]3(O)[C@H]1C5  slowly dissociating fraction (Oprm1; binding; CHO cell membranes; 0 °C): 87%
CC(C)[C@H](NC(=O)[C@H](CC(=O)O)NC(=O)[C@H](CCCNC(=N)N)NC(=O)[C@H](CCCNC(=N)N)NC(=O)[C@H](CCCCN)NC(=O)[C@H](CCCNC(=N)N)NC(=O)[C@H](CCCNC(=N)N)NC(=O)[C@H](CO)NC(=O)c1ccccc1N)C(=O)N[C@H](C(=O)N1CCC[C@H]1C(=O)N[C@@H](CCC(N)=O)C(=O)NCCNc1ccc([N+](=O)[O-])cc1[N+](=O)[O-])[C@@H](C)O  Km (FURIN; substrate; pH 7): 0.15 µM
CC(=O)NCCCC[C@H](NC(=O)CNC(=O)[C@H](CCCNC(=N)N)NC(C)=O)C(N)=O  kcat/KM (HDAC8; deacetylation, substrate; 25 °C, added: 150 nM enzyme): 4.4 ± 0.4 M⁻¹ s⁻¹
O=[N+]([O-])c1ccc(N=Nc2c(S(=O)(=O)O)cc3cc(S(=O)(=O)O)ccc3c2O)c([N+](=O)[O-])c1  Noxa peptide bound (Bcl-2-related protein A1 (Mus musculus, UniProt Q07440, C113S/P104K); binding, inhibitor, fluorescence polarization competition; 100 µM, overnight, 20 °C, added: FITC-Noxa peptide 375 nM; relative to: peptide without protein): 46%
CC(=O)N[C@@H](Cc1c[nH]cn1)C(=O)N[C@H](C(=O)NCC(=O)N[C@@H](Cc1ccccc1)C(=O)N[C@@H](CC(C)C)C(=O)N[C@H](C(=O)N[C@@H](CCC(=O)O)C(=O)N[C@@H](Cc1cc(=O)oc2cc(OP(=O)(O)O)ccc12)C(=O)N[C@H](C(=O)N[C@@H](C)C(=O)N[C@H](C(=O)N[C@@H](CCCNC(=N)N)C(=O)N[C@@H](Cc1c[nH]c2ccccc12)C(N)=O)[C@@H](C)O)C(C)C)[C@@H](C)OP(=O)(O)O)[C@@H](C)O  kcat/Km (DUSP3 (Homo sapiens, UniProt P51452); substrate; pH 6, ERK1/2 activation-loop peptide): 5220 M⁻¹ s⁻¹
C=CCN1CC[C@]23c4c5ccc(O)c4O[C@H]2[C@H](NC(=O)c2ccc(N=[N+]=[N-])c([125I])c2)CC[C@@]3(O)[C@H]1C5  fast dissociation half-life (Oprm1; binding; CHO cell membranes; 0.1 nM, 25 °C): 4.6 min
CC(=O)N[C@@H](CCCNC(=N)N)C(=O)N[C@H](C(=O)N[C@@H](CCCNC(=N)N)C(=O)N[C@@H](CCCNC(=N)N)C(=O)Nc1ccc2c(C)cc(=O)oc2c1)C(C)C  kcat/Km ratio (FURIN; substrate; relative to: with KCl over without KCl): 0.3
CS(=O)(=O)CCCn1c(Cn2c(=O)n(C3CC3)c3ccncc32)nc2cc(Br)ccc21  entropy term (−TΔS) (Fusion glycoprotein F0, prefusion DS-Cav1 (Human respiratory syncytial virus A, UniProt P03420, I379V/M447V/S155C/S190F/S290C/V207L); isothermal titration calorimetry; respiratory syncytial virus A2, PBS with 1% DMSO; 25 °C): 8.9 ± 0.42 kcal/mol
COc1ccccc1C(=O)Oc1c(Br)cc(Br)cc1CNC(=O)c1ccccc1[N+](=O)[O-]  melting temperature (lasR; thermal stability, differential scanning fluorimetry): 68.9 ± 0.3 °C
O=C(NC1CCCCC1)Oc1ccc(O)c(-c2ccccc2)c1  ID50 (Faah (Mus musculus, UniProt O08914); enzyme activity, inhibitor; mouse, brain ex vivo; intraperitoneal): 0.16 mg/kg
